# Experimental data from different studies.
# Target: Serine/threonine-protein kinase 32B (STK32B, Homo sapiens, UniProt Q9NY57)
# Sequence of UniProt Q9NY57 (whole entry, looked up): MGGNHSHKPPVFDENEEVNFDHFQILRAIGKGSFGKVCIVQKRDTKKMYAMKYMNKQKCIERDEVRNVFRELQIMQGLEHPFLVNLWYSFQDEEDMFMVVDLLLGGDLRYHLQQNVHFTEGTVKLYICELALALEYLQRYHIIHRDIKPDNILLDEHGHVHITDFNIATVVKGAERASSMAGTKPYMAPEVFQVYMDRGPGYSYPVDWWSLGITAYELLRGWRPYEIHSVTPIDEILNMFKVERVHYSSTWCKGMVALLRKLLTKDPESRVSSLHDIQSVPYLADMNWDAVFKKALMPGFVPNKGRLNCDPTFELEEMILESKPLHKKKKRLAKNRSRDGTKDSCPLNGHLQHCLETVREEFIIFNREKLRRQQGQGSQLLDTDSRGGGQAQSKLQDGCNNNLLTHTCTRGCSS
Compound,test,test system,setting,how to read,endpoint,value
COc1cc(Nc2nc(C)cc(-c3cnn4nc(OC)ccc34)n2)cc(C(F)(F)F)c1,"binding, competition with immobilised ligand",,1 µM,,remaining binding,100%
CCN1CCN(Cc2ccc(NC(=O)c3ccc(C)c(NC(=O)c4cncc(-c5cnn(C)c5)c4)c3)cc2C(F)(F)F)CC1,"binding, competition with immobilised ligand",,1 µM,,remaining binding,81%
Cc1ccc(-c2c(/C=C(\C#N)C(=O)NC(C)C)n(CCCO)c3ncnc(N)c23)cc1,"cell-free assay, competition with immobilised ligand",,1 µM,,remaining binding,87%
CNC(=O)C[C@H](Cc1ccc(C#N)cc1)NC(=O)c1cc(-c2ccc(CN[C@H](C)c3ccc(C)cc3)o2)ccc1Cl,"enzyme activity, inhibitor",,1 µM,,activity vs control,111%
O=C(Cc1ccc(OCc2ccccc2)cc1)NC1(C(=O)O)CCN(C(=O)c2ccc(-c3cccc(Cl)c3)cc2)CC1,"enzyme activity, inhibitor",,10 µM,,activity vs control,95%
NC(=O)[C@@H](O)C[C@H]1CCc2sc3ncnc(O[C@H]4CC[C@H](N5CCOCC5)CC4)c3c21,"enzyme activity, inhibitor",,10 µM,,inhibition,-1%
CNC1C[S+]2CC[S+]3CC[S+](C1)[Ru-4]321([N]=C=S)[n]2c3ccc(OC)cc3c3c4c(c5cc(F)c[n+]1c5c32)C(=O)NC4=O (centres unmarked),KinomeScan,,0.1 µM,reference: untreated,remaining binding,89%
Cc1cnc2nc1Nc1cccc(c1)COC/C=C/COCc1cc(ccc1OCCN1CCOCC1)N2,"binding, competition with immobilised ligand",,0.1 µM,,remaining binding,100%
CN1CC[C@@H](COc2cnc(C#N)cc2-c2ccn3nc(NC(=O)C4CC4)cc3c2)C1,"enzyme activity, inhibitor",,1 µM,,inhibition,2%
CCN1CCN(Cc2ccc(C(=O)Nc3ccc(C)c(NCc4cnc5[nH]ccc5c4OC)c3)cc2C(F)(F)F)CC1,"binding, competition with immobilised ligand",,1 µM,,remaining binding,82%
Cc1ccc(C(=O)Nc2ccc(CN3CCN(C)CC3)c(C(F)(F)F)c2)cc1C#Cc1cnc2cccnn12,"target engagement, NanoBRET",human cells,,,Hill slope,0.598
